Published values collected from several papers.
A part holds a random share of what one study measured. Values joined by “and” are separate records of one study, mostly repeats; a detail may differ.
Chain of UniProt Q16288 (whole entry, looked up): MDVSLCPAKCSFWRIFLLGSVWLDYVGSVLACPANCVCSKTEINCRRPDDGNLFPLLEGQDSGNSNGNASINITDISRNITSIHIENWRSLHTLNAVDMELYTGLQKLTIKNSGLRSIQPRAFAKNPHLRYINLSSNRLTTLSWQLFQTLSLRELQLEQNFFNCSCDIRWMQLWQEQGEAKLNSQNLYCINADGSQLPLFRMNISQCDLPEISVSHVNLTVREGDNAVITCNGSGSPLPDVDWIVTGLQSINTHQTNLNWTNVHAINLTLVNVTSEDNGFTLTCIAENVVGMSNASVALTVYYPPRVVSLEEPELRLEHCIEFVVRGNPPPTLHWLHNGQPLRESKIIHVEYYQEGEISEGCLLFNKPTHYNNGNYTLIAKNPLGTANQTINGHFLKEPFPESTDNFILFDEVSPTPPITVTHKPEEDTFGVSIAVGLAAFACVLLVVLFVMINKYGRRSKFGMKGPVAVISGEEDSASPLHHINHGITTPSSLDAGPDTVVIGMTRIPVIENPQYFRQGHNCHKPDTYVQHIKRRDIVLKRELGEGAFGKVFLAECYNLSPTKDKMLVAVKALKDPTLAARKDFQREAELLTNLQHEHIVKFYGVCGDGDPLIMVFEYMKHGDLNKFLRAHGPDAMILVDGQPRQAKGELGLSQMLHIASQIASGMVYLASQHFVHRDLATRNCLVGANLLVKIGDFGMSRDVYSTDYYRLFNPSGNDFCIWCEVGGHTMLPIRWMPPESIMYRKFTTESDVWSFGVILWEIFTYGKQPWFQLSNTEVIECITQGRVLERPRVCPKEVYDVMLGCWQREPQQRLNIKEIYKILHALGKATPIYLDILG
Chain of UniProt P36897 (whole entry, looked up): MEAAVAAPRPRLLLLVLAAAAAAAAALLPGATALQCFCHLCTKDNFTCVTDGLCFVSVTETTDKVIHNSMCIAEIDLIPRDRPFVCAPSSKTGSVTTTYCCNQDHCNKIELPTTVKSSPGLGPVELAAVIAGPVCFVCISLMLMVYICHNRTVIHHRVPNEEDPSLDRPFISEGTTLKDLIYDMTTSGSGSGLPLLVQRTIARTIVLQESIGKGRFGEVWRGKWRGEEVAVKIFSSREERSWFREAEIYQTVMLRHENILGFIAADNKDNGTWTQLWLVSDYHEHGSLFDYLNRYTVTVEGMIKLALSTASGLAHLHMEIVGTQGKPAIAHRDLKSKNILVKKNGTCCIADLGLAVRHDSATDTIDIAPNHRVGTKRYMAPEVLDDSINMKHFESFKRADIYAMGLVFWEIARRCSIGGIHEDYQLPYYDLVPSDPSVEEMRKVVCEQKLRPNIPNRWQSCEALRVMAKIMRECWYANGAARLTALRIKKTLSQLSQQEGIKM
Chain of UniProt P11802 (whole entry, looked up): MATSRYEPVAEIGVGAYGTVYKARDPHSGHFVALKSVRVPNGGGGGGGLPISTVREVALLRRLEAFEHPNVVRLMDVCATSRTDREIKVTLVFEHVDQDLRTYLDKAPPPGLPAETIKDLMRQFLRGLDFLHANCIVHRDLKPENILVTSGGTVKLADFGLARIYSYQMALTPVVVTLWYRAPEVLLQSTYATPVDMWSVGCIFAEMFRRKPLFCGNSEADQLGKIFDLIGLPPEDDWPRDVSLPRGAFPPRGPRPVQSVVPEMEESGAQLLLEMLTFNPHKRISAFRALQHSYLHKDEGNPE
Chain of UniProt P10721 (whole entry, unmodified, looked up): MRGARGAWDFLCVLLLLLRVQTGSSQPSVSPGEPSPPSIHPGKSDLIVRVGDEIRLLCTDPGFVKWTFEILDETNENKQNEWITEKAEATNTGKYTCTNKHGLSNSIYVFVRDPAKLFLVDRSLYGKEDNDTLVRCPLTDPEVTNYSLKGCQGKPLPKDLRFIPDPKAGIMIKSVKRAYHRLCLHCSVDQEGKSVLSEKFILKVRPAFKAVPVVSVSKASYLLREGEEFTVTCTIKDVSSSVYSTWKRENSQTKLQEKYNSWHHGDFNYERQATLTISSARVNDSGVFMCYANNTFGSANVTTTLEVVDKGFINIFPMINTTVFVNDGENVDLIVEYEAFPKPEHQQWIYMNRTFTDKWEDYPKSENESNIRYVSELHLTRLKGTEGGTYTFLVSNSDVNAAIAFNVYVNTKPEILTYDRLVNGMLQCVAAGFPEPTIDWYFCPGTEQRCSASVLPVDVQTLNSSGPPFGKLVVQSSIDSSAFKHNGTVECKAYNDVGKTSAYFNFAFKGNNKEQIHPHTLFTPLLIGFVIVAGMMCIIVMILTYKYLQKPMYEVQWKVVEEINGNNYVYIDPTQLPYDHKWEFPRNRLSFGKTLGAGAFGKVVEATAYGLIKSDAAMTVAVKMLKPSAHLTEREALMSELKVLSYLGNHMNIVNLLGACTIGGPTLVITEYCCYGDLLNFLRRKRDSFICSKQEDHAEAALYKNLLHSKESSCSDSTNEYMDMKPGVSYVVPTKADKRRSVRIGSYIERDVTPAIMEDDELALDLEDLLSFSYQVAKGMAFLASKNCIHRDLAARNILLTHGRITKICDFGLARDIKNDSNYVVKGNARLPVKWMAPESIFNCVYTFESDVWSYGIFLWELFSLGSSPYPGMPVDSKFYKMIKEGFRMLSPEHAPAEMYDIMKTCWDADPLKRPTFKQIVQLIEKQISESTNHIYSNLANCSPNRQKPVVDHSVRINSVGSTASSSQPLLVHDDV
Chain of UniProt O95835 (whole entry, looked up): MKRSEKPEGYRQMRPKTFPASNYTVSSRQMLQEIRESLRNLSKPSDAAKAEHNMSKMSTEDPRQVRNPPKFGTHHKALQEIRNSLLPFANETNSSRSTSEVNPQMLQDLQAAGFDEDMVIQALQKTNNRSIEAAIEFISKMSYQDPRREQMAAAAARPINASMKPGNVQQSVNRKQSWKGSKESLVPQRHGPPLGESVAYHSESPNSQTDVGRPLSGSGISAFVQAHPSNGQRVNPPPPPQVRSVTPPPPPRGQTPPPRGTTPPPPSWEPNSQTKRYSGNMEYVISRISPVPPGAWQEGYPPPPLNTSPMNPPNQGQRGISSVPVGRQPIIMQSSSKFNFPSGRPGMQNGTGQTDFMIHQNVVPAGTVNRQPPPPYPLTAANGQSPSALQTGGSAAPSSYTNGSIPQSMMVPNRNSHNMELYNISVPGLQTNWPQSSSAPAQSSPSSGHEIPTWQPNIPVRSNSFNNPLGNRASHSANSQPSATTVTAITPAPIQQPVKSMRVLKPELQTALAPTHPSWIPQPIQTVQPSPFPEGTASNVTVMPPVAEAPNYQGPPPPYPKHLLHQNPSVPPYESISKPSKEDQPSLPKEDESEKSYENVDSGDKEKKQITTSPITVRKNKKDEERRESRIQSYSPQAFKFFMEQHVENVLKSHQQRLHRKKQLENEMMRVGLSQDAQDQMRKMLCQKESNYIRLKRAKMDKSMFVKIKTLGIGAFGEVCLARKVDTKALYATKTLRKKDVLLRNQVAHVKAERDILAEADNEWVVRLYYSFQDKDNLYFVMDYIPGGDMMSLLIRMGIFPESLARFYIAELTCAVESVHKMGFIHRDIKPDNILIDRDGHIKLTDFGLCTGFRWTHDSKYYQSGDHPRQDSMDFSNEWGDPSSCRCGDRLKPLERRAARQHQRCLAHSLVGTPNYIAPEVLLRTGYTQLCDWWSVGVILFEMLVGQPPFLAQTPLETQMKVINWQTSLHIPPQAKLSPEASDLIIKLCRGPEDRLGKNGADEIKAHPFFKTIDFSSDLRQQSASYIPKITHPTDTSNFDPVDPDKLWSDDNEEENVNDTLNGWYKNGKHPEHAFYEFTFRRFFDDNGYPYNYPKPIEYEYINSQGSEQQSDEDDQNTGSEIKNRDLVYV
Chain of UniProt Q13177 (whole entry, looked up): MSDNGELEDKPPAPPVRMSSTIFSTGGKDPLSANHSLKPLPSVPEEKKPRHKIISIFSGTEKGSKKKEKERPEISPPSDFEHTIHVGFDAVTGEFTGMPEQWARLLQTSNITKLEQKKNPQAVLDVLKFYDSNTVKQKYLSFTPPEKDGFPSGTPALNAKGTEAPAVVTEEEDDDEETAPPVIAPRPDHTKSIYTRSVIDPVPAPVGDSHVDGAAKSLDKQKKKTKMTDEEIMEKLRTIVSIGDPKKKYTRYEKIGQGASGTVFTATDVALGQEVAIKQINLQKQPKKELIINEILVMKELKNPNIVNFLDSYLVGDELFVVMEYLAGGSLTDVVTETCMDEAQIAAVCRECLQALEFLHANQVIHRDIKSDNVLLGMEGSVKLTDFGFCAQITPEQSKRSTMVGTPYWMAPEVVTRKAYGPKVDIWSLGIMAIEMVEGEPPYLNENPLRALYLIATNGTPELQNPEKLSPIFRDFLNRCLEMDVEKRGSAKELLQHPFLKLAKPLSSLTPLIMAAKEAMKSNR
Chain of UniProt Q86YV6 (whole entry, looked up): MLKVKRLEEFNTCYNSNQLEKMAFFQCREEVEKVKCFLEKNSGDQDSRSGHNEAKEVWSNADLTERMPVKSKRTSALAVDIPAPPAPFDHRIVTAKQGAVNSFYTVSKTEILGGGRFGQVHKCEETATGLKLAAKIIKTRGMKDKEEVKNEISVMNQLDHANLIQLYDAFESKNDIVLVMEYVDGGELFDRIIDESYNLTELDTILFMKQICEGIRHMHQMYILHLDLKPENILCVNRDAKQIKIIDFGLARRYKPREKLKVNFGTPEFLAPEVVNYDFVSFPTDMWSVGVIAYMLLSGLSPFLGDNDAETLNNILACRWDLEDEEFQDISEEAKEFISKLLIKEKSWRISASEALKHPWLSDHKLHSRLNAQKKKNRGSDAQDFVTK
Chain of UniProt P51817 (whole entry, looked up): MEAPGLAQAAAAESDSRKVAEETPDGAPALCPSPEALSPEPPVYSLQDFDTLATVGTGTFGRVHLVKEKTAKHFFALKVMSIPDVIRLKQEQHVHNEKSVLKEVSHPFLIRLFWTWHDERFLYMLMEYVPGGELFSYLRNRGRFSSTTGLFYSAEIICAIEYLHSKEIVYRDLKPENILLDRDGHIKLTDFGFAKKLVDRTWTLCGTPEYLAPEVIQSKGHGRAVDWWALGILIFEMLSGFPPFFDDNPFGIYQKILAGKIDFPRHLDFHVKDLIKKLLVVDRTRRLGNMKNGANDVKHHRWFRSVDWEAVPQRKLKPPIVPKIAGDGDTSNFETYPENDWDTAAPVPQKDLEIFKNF

Block 1 — species: C57BL/6 CES1-/- mice, MC-38 tumour; dose: dose not given; with: anti-PD-1; baseline: initial
Structure (SMILES): CC(=O)N[C@@H](Cc1c[nH]c2ccccc12)C(=O)N[C@@H](CCC(=O)C=[N+]=[N-])C(=O)OC(C)C
time	body weight
day 38 after inoculation	100% and 93.5% and 92.7% and 96.1% and 96% and 97.8%
day 10 after inoculation	100%
day 84 after inoculation	106% and 103%
day 88 after inoculation	110% and 104%
day 23 after inoculation	96.3% and 97.5% and 98.2% and 91.4% and 98.4% and 97% and 93.5%
day 59 after inoculation	101% and 91.5% and 104% and 88.9% and 98.7%

Block 2 — method: competition with immobilised ligand; tested at: 0.1 µM
Structure (SMILES): Cn1nc(C(=O)NCc2ccc(C(=O)O)cc2)cc1-c1ccc2[nH]ccc2c1
target	effect on	remaining binding [%]
CSNK1G2 (Homo sapiens, UniProt P78368)	cell-free assay	90
STK10 (Homo sapiens, UniProt O94804)	cell-free assay	80
FLT3 (Homo sapiens, UniProt P36888, R834Q)	cell-free assay	63
EGFR (Homo sapiens, UniProt P00533, del747-750/T751S)	cell-free assay	74
PAK4 (Homo sapiens, UniProt O96013)	cell-free assay	86
TRPM6 (Homo sapiens, UniProt Q9BX84)	cell-free assay	79
SIK3 (Homo sapiens, UniProt Q9Y2K2)	cell-free assay	94
FLT3 (Homo sapiens, UniProt P36888, D835H)	cell-free assay	46
BUB1 (Homo sapiens, UniProt O43683)	cell-free assay	83
PAK2 (Homo sapiens, UniProt Q13177)	cell-free assay	23
NTRK3 (Homo sapiens, UniProt Q16288)	cell-free assay	89
CDK11A (Homo sapiens, UniProt Q9UQ88)	binding	96
Cyclin-dependent kinase 4, with cyclin D1 (CDK4, Homo sapiens, UniProt P11802)	cell-free assay	96
PTK6 (Homo sapiens, UniProt Q13882)	cell-free assay	89
Mast/stem cell growth factor receptor Kit, autoinhibited (KIT, Homo sapiens, UniProt P10721)	cell-free assay	90
KIT (Homo sapiens, UniProt P10721, V559D)	cell-free assay	90
CDK4 (Homo sapiens, UniProt P11802)	cell-free assay	84
TGFBR1 (Homo sapiens, UniProt P36897)	cell-free assay	97
LATS1 (Homo sapiens, UniProt O95835)	cell-free assay	100
MYLK4 (Homo sapiens, UniProt Q86YV6)	cell-free assay	76
LIM domain kinase 2 (LIMK2, Homo sapiens, UniProt P53671)	cell-free assay	100
WNK2 (Homo sapiens, UniProt Q9Y3S1)	cell-free assay	70

Block 3 — tested at: 1 µM
SMILES: CN1CCN(C(=O)c2ccc(NC(=O)Nc3ccc(N(C)c4ccnc(Nc5ccc(CS(C)(=O)=O)cc5)n4)cc3)cc2)CC1
target	method	notes	baseline	remaining binding
PHKG2 (Homo sapiens, UniProt P15735)	competitive binding panel	–	vehicle	100%
CDK7 (Homo sapiens, UniProt P50613)	competitive binding panel	–	vehicle	61%
PKN2 (Homo sapiens, UniProt Q16513)	competitive binding panel	–	vehicle	100%
MAPK11 (Homo sapiens, UniProt Q15759)	competitive binding	p38-beta	–	100%
PIK3CA (Homo sapiens, UniProt P42336, E542K)	competitive binding panel	–	vehicle	98%
NTRK3 (Homo sapiens, UniProt Q16288)	competitive binding	TRKC	–	2%

Block 4 — effect on: enzyme activity; action: inhibitor; tested at: 1 µM
SMILES: CC#CC(=O)N1CCC[C@H]1c1nc(-c2ccc(C(=O)Nc3ccccn3)cc2)c2c(N)nccn12
target	inhibition [%]
TGFBR1 (Homo sapiens, UniProt P36897)	16
BRSK1 (Homo sapiens, UniProt Q8TDC3)	0
PRKX (Homo sapiens, UniProt P51817)	0

Block 5 — cell line: HaCaT; tested at: 100 µM; time: 36 h
SMILES	viability
COc1c2occc2cc2ccc(=O)oc12	47.5%
O=C(/C=C/C=C/c1ccc2c(c1)OCO2)N1CCCCC1	50.6%
COc1cc(C(=O)N2CCOCC2)cc(OC)c1OC	84%
CN1CC(=O)N2[C@H](c3ccc4c(c3)OCO4)c3[nH]c4ccccc4c3C[C@@H]2C1=O	86.4%
CC1(C)S[C@@H]2[C@H](NC(=O)[C@H](C(=O)O)c3ccsc3)C(=O)N2[C@H]1C(=O)O	92.7%
CC(=O)Oc1c(C)c(C)c2c(c1C)CCC(C)(CCC[C@H](C)CCC[C@H](C)CCCC(C)C)O2 (some centres unmarked)	91.8%
CNC1(C)C2CCC(C2)C1(C)C (centres unmarked)	87%

For quick reference, copied from above (block 1):
time	body weight
day 38 after inoculation	100% and 93.5% and 92.7% and 96.1% and 96% and 97.8%
day 10 after inoculation	100%
day 84 after inoculation	106% and 103%
day 88 after inoculation	110% and 104%
day 23 after inoculation	96.3% and 97.5% and 98.2% and 91.4% and 98.4% and 97% and 93.5%
